Measurements from different studies.
Each line is one published result; not all experiments were run side by side. “And” joins repeats or separate records; there may be more than shown. pEC50: −log10 of the molar value.

SMILES	target or system	assay	test system	setting	how to read	measurement	value
C[C@H](Oc1ccc(Br)cc1-c1ccon1)C(=O)O	–	mean CMAP amplitude	human, tibialis anterior muscle	50 mg, SAD	–	difference from placebo	0.07 mV
c1coc(-c2n[nH]cc2-c2ccnc3ccccc23)c1	POM1 (Candida albicans)	kinase binding, MIB/MS competition	Candida albicans lysate	10 µM	relative to: DMSO	log2 fold change	-0.43
CC(C)C[C@@H](C=O)NC(=O)[C@H](CC(C)C)NC(=O)[C@H](CC(C)C)NC(=O)OCc1ccccc1	Mus musculus	gene silencing, high-content imaging	LDR reporter GFP cells	retest run 1	–	AC50	10 µM
CC(C)NCC(O)c1ccc(O)c(O)c1 (stereo not drawn)	–	–	ventricular cardiomyocytes, C57BL/6 mouse	dose not given, 0.728 s	–	sarcomere length	1.72 µm
Cn1cc(-c2ccc(-c3cncc(Cl)c3N3CCC4(CCNC4=O)CC3)cc2)cn1	COLO 205	gene expression, microarray, refers to: HOXA4 mRNA	–	concentration not given, 6 h	relative to: untreated cells	log2 fold change	-1.01
COc1cc(OC)c(/C=C/S(=O)(=O)Cc2ccc(OC)c(NCC(=O)O)c2)c(OC)c1	Trypanosoma brucei	cell growth	–	–	–	pEC50	< 5.52
Oc1ccccc1-c1n[nH]cc1-c1ccnc2ccccc12	PBS2 (Candida albicans)	kinase binding, MIB/MS competition	Candida albicans lysate	10 µM	relative to: DMSO	log2 fold change	0.21
O=C1CN(c2nc(-c3ccccc3)c3cc(Cl)ccc3n2)c2ccccc2N1	Mus musculus	gene silencing, high-content imaging	LDR reporter GFP cells	retest run 2	–	maximal activity	46%
CC(C)n1ncc2c(C(=O)NCC3(C)CNC3)cc(C3CC3)nc21	Enterovirus D68	cytopathic effect	RD, US/IL/14-18956	15 nM	–	cell protection	0% and -0.703%
CCCN1CCC=C(c2ccc(Nc3nc(Nc4ccccc4C(N)=O)c4cc[nH]c4n3)c(C)c2)C1	Trypanosoma brucei	–	–	unit not given	relative to: pEC50 T. brucei minus pTC50 HepG2	selectivity	1.3
Br.N=c1n(CC(=O)c2ccc([N+](=O)[O-])cc2)c2ccccc2n1Cc1ccccc1Cl	Mus musculus	gene silencing, high-content imaging	LDR reporter GFP cells	retest run 1	–	maximal activity	20%
CCn1c(-c2nonc2N)nc2cncc(C(=O)N3CCNCC3)c21.Cl	Trypanosoma brucei brucei	cell growth	–	concentration not given, PKIS HTS	–	inhibition	7.9%
CN(C)S(=O)(=O)c1cccc(NC(=S)N/N=C/c2ccco2)c1	Mus musculus	gene silencing, high-content imaging	LDR reporter GFP cells	retest run 1	–	maximal activity	37%
CN1CCC(C(=O)Nc2n[nH]c3nc(-c4ccc(O)cc4)c(Br)cc23)CC1.O=C(O)/C=C\C(=O)O	Trypanosoma brucei brucei	parasite growth, inhibitor	–	concentration not given, PKIS high-throughput screen	–	inhibition	100%
Oc1[nH]c2ccccc2c1N=NC(=S)N1CCOCC1	Mus musculus	gene silencing, high-content imaging	LDR reporter GFP cells	retest run 2	–	maximal activity	100%
C[C@@H](Oc1cc(-n2cnc3ccc(OCC4CCN(C)CC4)cc32)sc1C(N)=O)c1ccccc1C(F)(F)F	Trypanosoma brucei	–	–	unit not given	relative to: pEC50 T. brucei minus pTC50 HepG2	selectivity	2.8
S=C(Nc1ccccc1)c1ccccn1	Mus musculus	gene silencing, high-content imaging	LDR reporter GFP cells	retest run 1	–	maximal activity	115%
Cl.ON=C1CCc2cc(-c3nc(C4CCNCC4)[nH]c3-c3ccncc3)ccc21	Trypanosoma brucei brucei	cell growth	–	concentration not given, PKIS HTS	–	inhibition	7.9%
COc1ccc(OC)c(Nc2nc3nonc3nc2N2CCCC(C)C2)c1 (stereo not drawn)	Mus musculus	gene silencing, high-content imaging	LDR reporter GFP cells	retest run 2	–	maximal activity	49%
CN(C)CCCNc1nccc(-c2c(-c3ccc(F)cc3)nn3cc(C(F)(F)F)ccc23)n1	Trypanosoma brucei	–	–	unit not given	relative to: pEC50 T. brucei minus pTC50 HepG2	selectivity	1
N#Cc1ccc2c(-c3ccncc3)c(-c3ccc(F)cc3)nn2c1	–	kinase binding, competitor, MIB/MS competition, refers to: MCK1	Candida albicans cell lysate	10 µM	relative to: DMSO	log2 fold change	-0.225
